Published values of several laboratories.
Parts stem from different laboratories: compare values within a part only.

Series 1
Target: Prothrombin, mature alpha-thrombin (F2, Homo sapiens, UniProt P00734)
Method: aptamer microarray, sandwich
Molecule type: DNA with 2'F-ANA
Medium: in vitro
Tested at: 200 nM
Notes: whole 15-mer aptamer, many near background
Together with: Cy3 exosite-II aptamer, 400 nM
Reading: higher = stronger binding
Strand: GGTTGGTGTGGTTGG
`2'F-ANA at 1 3 6 9 11 12 14 15`: “mean fluorescence intensity” 95 a.u.
`2'F-ANA at 1 2 3 6 9 11 12 13 14`: “mean fluorescence intensity” 73.9 a.u.
`2'F-ANA at 2 7 13 14 15`: “mean fluorescence intensity” 168 a.u.
Under “mean fluorescence intensity”, `2'F-ANA at 4 5 6 9 11` is recorded as 92.4 a.u.
Under “mean fluorescence intensity”, `2'F-ANA at 3 7 8 10 15` is recorded as 655 a.u.
`2'F-ANA at 6 7 8 11 12 13 15`: “mean fluorescence intensity” 604 a.u.
For `2'F-ANA at 1 5 7 8 12 14 15`, “mean fluorescence intensity” read 48.7 a.u.
Under “mean fluorescence intensity”, `2'F-ANA at 1 2 4 7 10 11 13 14` is recorded as 55.2 a.u.
`2'F-ANA at 2 4 8 9 10 11 12 14 15` — result for “mean fluorescence intensity”: 59.7 a.u.
`2'F-ANA at 1 5 6 8 10 12 15` — result for “mean fluorescence intensity”: 45.4 a.u.
`2'F-ANA at 1 2 7 8 11 12`: “mean fluorescence intensity” 398 a.u.
For `2'F-ANA at 1 2 4 5 6 7 8 11 13 14 15`, “mean fluorescence intensity” read 60.5 a.u.
For `2'F-ANA at 1 2 3 4 5 7 12 13 14 15`, “mean fluorescence intensity” read 49.2 a.u.
`2'F-ANA at 1 2 3 7 9 10 11 13 15`: “mean fluorescence intensity” 71.9 a.u.
`2'F-ANA at 1 2 4 5 6 7 8 9 11`: “mean fluorescence intensity” 57 a.u.
`2'F-ANA at 1 5 6 8 9 13 15`: “mean fluorescence intensity” 50.8 a.u.
`2'F-ANA at 1 3 5 6 8 9 10 14`: “mean fluorescence intensity” 47.1 a.u.
Under “mean fluorescence intensity”, `2'F-ANA at 2 6 7 10 11 13 14 15` is recorded as 76.2 a.u.
`2'F-ANA at 3 5 8 9 15`: “mean fluorescence intensity” 145 a.u.
`2'F-ANA at 1 2 3 5 7 10 11 13` — result for “mean fluorescence intensity”: 89 a.u.
`2'F-ANA at 1 3 7 9 10 11 12 13 14 15` — result for “mean fluorescence intensity”: 61 a.u.
`2'F-ANA at 1 4 5 6 7 8 10 11 13 15`: “mean fluorescence intensity” 51.7 a.u.

Series 2
Target: RING finger protein unkempt homolog, zinc fingers 1-6, SBP tag (UNK, Homo sapiens, UniProt Q9C0B0, residues 30-357)
UniProt Q9C0B0, sequence (30-357, looked up): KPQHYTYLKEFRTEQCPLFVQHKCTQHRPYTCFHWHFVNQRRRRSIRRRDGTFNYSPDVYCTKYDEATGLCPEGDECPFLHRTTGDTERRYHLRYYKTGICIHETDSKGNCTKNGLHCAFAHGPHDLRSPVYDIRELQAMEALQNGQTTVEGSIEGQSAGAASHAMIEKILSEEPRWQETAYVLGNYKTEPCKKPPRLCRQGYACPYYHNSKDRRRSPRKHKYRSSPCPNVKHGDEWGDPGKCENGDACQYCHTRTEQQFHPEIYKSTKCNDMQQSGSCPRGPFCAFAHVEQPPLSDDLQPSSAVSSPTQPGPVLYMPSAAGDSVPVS
Method: RNA Bind-n-Seq
Molecule type: RNA
Medium: in vitro
Tested at: 100 nM
Notes: RNA with constant flanks, vertebrate orthologous sites, ends assumed
Relative to: input RNA pool
Reading: higher = stronger binding
For `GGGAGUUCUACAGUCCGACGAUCAUCUCACAUUUUAUAUGUCCAAAAGAGGUUUUGAAUUUUUAAACAAUUGCUAGUUUUGACUAGCUCUGCCCUCAUGAAGUAUCAUUAUAAUCGCCACAGAUAUCUGUCUGAAUUACUUCACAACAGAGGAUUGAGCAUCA`, the bound/input enrichment was 0.397 ratio.
`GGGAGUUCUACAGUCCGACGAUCUUUUUAAAGUUUUUUUUUAAUUUAAGUUUUCCUUUUGGGGGUAAAGUUUGCUCUACCAAAUAGUGAUUGUAACAAUUUGAUCUGUUUUGGAUGUUGCUAUAGUGACAUGCAGUUAUAUAUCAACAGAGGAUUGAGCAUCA` gave a bound/input enrichment of 0.989 ratio.
`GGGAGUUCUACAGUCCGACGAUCAGAAAAUUUUAACCAAGAAUCUGAAGCUAGAAAUACAGGACCGUGGUUAUCUUCCUCGCUUAGAAAUAGAUGCACACCUUUGUUUUCUAGAAGGAGGCGAGAAGGAAGAGAUGAAUCUUCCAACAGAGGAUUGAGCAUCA` gave a bound/input enrichment of 0.752 ratio.
The bound/input enrichment of `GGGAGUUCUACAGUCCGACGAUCCCAGUUUUCCAUGUAGGGUUGGCCUCAAAUCUAUAGGAUUUUUGACAAAUGUACCAUAUGUAGUUGCAUUGAGUUUUAGUAUUUUUUUAUUAGCCUGUAAAUAAAGAUGGCAUCUCUCCUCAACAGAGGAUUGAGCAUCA` is reported as 3.14 ratio.
With `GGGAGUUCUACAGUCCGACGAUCUGUGAGCGUCUACAGACAGCUCACCAUUUUUGUCCUGUAUCUGUAAACACUUUUUGUUCUUAGUCUUUUUCUUGUAAAAUUGAUGUUCUUUAAAAUCGUUAAUGUAUAACAGGGCUUAUGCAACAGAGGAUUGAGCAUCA` the bound/input enrichment was 0.303 ratio.
With `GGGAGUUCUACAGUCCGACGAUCGGGAUAUAUUGAAUAGUAUUAAACAUUUUCGUCUUCCUUUACCUUUUAUCCCUUAAUAUCUAGUCUACUUUUUUAAACUUCAGACUUCAAUGCUCUUUGAAUUGAUAAUUCCAAUUUUCACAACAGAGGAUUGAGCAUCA` the bound/input enrichment was 0.941 ratio.
With `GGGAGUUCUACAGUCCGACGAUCUCUAUACGAUUUUAAAGACACUUCCUUACAAGGCACUUUGGCUCUUCAUAGAUCCCAUCGUAUUUACAGAUCUAUUUUUUUAAAAUAGCAGUAUGAACUCAAAGGGGACUUGGUUGGCGUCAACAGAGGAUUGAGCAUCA` the bound/input enrichment was 0.686 ratio.
`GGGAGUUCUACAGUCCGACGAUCAUUCAAACCUGUGGUGCCCUGGCCUCAUGUUGAAGGAGUAGAAGUGGACUUAGAAUCUAUUAGAAGAAAAAACAAGGCCAAAAAAGAACAGGAGCGCCAUGCUGGAGGAGAUUCCCAAAACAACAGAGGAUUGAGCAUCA` gave a bound/input enrichment of 0.522 ratio.

Series 3
Target: Fragile X messenger ribonucleoprotein 1, C-terminal low-complexity region (Fmr1, Mus musculus, UniProt P35922)
Method: RNA Bind-n-Seq
Molecule type: RNA
Medium: in vitro
Tested at: 200 nM
Notes: whole 134-nt RNA, ends assumed
Together with: 150 mM KCl
Relative to: input library
Reading: higher = stronger binding
`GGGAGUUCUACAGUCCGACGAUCCCUGUGCUACACAUCGUAUGUACCGAAUCGGGGUUUUUGGGGAAAGGGGUUUUUUUGGGGAAAGUAUUAUGUUACGCCGUUCGGAUCUGCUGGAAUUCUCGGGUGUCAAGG` gave a log2 enrichment of 0.316.
With `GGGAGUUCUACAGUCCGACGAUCGUCCUGUGCUACACAUCGUAUGUACCGAAUCGGGGAAAGGGGAAAGGGGAAAAAGGGGAAAGUAUUAUGUUACGCCGUUCGGAUCUGCACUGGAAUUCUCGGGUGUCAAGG` the log2 enrichment was 0.0944.
`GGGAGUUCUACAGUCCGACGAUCGUGCUGGCUGGCCACGGUCACCUGUAUUCCCGCAUCCCAGGCCUGCUCAGCCCCCAUCCCCUGCUGCAGCUGAGCUACACGGCCACCGACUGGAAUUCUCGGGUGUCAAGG` gave a log2 enrichment of 0.561.
For `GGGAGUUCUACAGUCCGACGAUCGCAGGAAGUAAAAACAAAUGGAAAUGCUUAAAAUAGUGGCAGGGGUGGGGGUUGCUAAGGAAAGGGUGGGAUGGGAGUGGGUAAAGAGUUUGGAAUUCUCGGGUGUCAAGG`, the log2 enrichment was 0.482.
For `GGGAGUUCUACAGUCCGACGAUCCUCAAGUCCUGUGCUACACAUCGUAUGUACCGAAUCGGAAAGGUGGUUUUUGGAAAGUAUUAUGUUACGCCGUUCGGAUCUGCACUUCCAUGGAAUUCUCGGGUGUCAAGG`, the log2 enrichment was -0.332.
`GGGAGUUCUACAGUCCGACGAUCUGUUCACAUUUUAAGGAUGACAAGUCCACUAUAUGUAACACGUAAGAAUGCUAUCCUGGCAGUAGACACAGGGCCAGAAUAAACUGGCAAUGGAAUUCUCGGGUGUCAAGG` gave a log2 enrichment of -0.543.
With `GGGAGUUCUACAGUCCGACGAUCUAACUUUAGAGGAGGAUCUGAUGGAUAUGGCAGGGGACGUGGAUUUGGGGAUGGCUAUAAUGGGUAUGGAGGAGGACCUGGAGGUGGCAAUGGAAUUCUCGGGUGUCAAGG` the log2 enrichment was 0.34.
The log2 enrichment of `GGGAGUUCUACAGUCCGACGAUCUCCUGUGCUACACAUCGUAUGUACCGAAUCGGGAAAAAGGGGAAAAAGGGGAAAAAGGGGAAAGUAUUAUGUUACGCCGUUCGGAUCUGCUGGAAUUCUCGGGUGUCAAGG` is reported as 0.181.
`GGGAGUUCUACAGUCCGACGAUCUCAAGUCCUGUGCUACACAUCGUAUGUACCGAAUCGGCCCGGGCCCGGCCCGGGAAAGUAUUAUGUUACGCCGUUCGGAUCUGCACUUCCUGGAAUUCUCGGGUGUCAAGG` has a log2 enrichment of -0.759.

Series 4
Target: Histone acetyltransferase KAT6A, winged helix 1, GST fusion (KAT6A, Homo sapiens, UniProt Q92794, residues 1-85)
Method: protein binding microarray
Molecule type: double-stranded DNA, one strand shown
Medium: in vitro
Tested at: not given
Notes: 8-mer, flanks averaged, mean of 2 arrays, mostly near background
Relative to: not given
Reading: higher = stronger binding
Target sequence (chain): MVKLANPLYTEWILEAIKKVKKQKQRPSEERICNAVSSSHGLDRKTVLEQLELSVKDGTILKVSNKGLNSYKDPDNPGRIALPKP
`AGGAATGA` has an E-score of -0.111.
`ACCAAGTA` has an E-score of -0.0801.
With `GTGAATTA` the E-score was 0.0243.
For `TCAATCCA`, the E-score was -0.269.
`CAGGAAGA` gave an E-score of 0.00379.
The E-score of `CTGACACC` is reported as -0.033.
With `AAAGGTGA` the E-score was -0.0888.
`TGCTAGAA` gave an E-score of -0.0215.
For `AACTATAT`, the E-score was -0.0644.
`AGGACTCG` gave an E-score of -0.0904.
For `ACTCAAAT`, the E-score was -0.114.
`AATAGCAA` has an E-score of -0.227.
`TGATAACA` has an E-score of -0.139.
For `GGTTGGAA`, the E-score was -0.0914.
`GAGCGCTA` has an E-score of 0.264.
The E-score of `AACTGTAT` is reported as -0.0752.
For `ACAACTTG`, the E-score was -0.197.
`CGTATAAG` has an E-score of 0.128.
For `CGCGTCCA`, the E-score was 0.305.
`CGGTGTGC` gave an E-score of 0.186.
`GCCTAACC` gave an E-score of -0.0677.
With `AGGCATTG` the E-score was -0.181.

For quick reference, copied from above (series 3):
`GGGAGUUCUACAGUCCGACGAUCGUGCUGGCUGGCCACGGUCACCUGUAUUCCCGCAUCCCAGGCCUGCUCAGCCCCCAUCCCCUGCUGCAGCUGAGCUACACGGCCACCGACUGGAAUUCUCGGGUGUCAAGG` gave a log2 enrichment of 0.561.
For `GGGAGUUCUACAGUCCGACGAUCGCAGGAAGUAAAAACAAAUGGAAAUGCUUAAAAUAGUGGCAGGGGUGGGGGUUGCUAAGGAAAGGGUGGGAUGGGAGUGGGUAAAGAGUUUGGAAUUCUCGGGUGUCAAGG`, the log2 enrichment was 0.482.
For `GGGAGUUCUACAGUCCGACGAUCCUCAAGUCCUGUGCUACACAUCGUAUGUACCGAAUCGGAAAGGUGGUUUUUGGAAAGUAUUAUGUUACGCCGUUCGGAUCUGCACUUCCAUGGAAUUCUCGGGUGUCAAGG`, the log2 enrichment was -0.332.
`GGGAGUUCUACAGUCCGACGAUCUGUUCACAUUUUAAGGAUGACAAGUCCACUAUAUGUAACACGUAAGAAUGCUAUCCUGGCAGUAGACACAGGGCCAGAAUAAACUGGCAAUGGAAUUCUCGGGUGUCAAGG` gave a log2 enrichment of -0.543.
With `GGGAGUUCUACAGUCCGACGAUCUAACUUUAGAGGAGGAUCUGAUGGAUAUGGCAGGGGACGUGGAUUUGGGGAUGGCUAUAAUGGGUAUGGAGGAGGACCUGGAGGUGGCAAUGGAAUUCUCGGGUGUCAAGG` the log2 enrichment was 0.34.
